Experimental data of several laboratories.
Each line is one published result; not all experiments were run side by side. Values joined by “and” are separate records of one study, mostly repeats; a detail may differ.
MAP2K6: Dual specificity mitogen-activated protein kinase kinase 6 (MAP2K6, Homo sapiens, UniProt P52564)

SMILES | target | test | setting | how to read | endpoint | result
C=CC(=O)N1CCCC(n2c(=O)c3ncccc3n(Cc3ccc(Oc4ccccc4)cc3)c2=O)C1 (centres unmarked) | MAP2K6 | cell-free assay, competition with immobilised ligand | 1 µM |  | remaining binding | 100%
NC(=O)[C@@H](O)C[C@H]1CCc2sc3ncnc(O[C@H]4CC[C@H](N5CCOCC5)CC4)c3c21 | MAP2K6 | enzyme activity, inhibitor | 10 µM |  | inhibition | 11%
Cc1cnc2nc1Nc1cccc(c1)COC/C=C/COCc1cc(ccc1OCCN1CCOCC1)N2 | MAP2K6 | binding, competition with immobilised ligand | 0.1 µM |  | remaining binding | 100%
Nc1ncc2c(n1)-c1c([nH]c3ccc(C4=CCOCC4)cc13)CCC2 | MAP2K6 | binding, competition with immobilised ligand | 1 µM |  | remaining binding | 100%
CN1CC[C@@H](COc2cnc(C#N)cc2-c2ccn3nc(NC(=O)C4CC4)cc3c2)C1 | MAP2K6 | enzyme activity, inhibitor | 1 µM |  | inhibition | 33%
CNC(=O)C[C@H](Cc1ccc(C#N)cc1)NC(=O)c1cc(-c2ccc(CN[C@H](C)c3ccc(C)cc3)o2)ccc1Cl | MAP2K6 | enzyme activity, inhibitor | 1 µM |  | activity vs control | 92%
O=C=[N][Ru-4]123([n]4c5ccc(O)cc5c5c6c(c7cc(F)c[n+]1c7c54)C(=O)NC6=O)[S+]1CC[S+]2CC[S+]3CC1 (centres unmarked) | MAP2K6 | enzyme activity | 100 nM, human enzyme, with: 10 µM ATP | relative to: untreated | remaining activity | 115%
NC(=O)C[C@H]1CCc2sc3ncnc(O[C@H]4CC[C@H](N5CCOCC5)CC4)c3c21 | MAP2K6 | enzyme activity, inhibitor | 10 µM |  | inhibition | 7%
O=C(Cc1ccc(OCc2ccccc2)cc1)NC1(C(=O)O)CCN(C(=O)c2ccc(-c3cccc(Cl)c3)cc2)CC1 | MAP2K6 | enzyme activity, inhibitor | 10 µM |  | activity vs control | 110%
CNC(=O)C1CCN(c2cc(C)c(F)cc2NC(=O)c2ccc(-c3cc(O)ccc3C)c(C)c2)CC1 | MAP2K6 | binding, competition with immobilised ligand | 1 µM |  | remaining binding | 100%
COc1c(Cl)cccc1Nc1c(-c2ccncc2C#C[C@@]2(C)CCCN2C(=O)/C=C/CN(C)C)[nH]c2c1C(=O)NCC2 | MAP2K6 | binding, competition with immobilised ligand | 3 µM |  | remaining binding | 70%
COc1cc(Nc2nc(C)cc(-c3cnn4nc(OC)ccc34)n2)cc(C(F)(F)F)c1 | MAP2K6 | inhibitor | 1 µM, MEK6 | relative to: control | remaining activity | 100%
C=CC(=O)N1CCc2ccc(-n3c(=O)ccc4cnc5ccc(-c6cnn(C)c6)cc5c43)cc21 | MAP2K6 | KINOMEscan | 1 µM | relative to: DMSO control | remaining binding | 92%
Cc1ccc(-c2c(/C=C(\C#N)C(=O)NC(C)C)n(CCCO)c3ncnc(N)c23)cc1 | MAP2K6 | cell-free assay, competition with immobilised ligand | 1 µM |  | remaining binding | 100%
COc1c(OCCCN2CCOCC2)ccc2c1N=C(NC(=O)c1cnc(N)nc1)N1CCN=C21 | MAP2K6 | kinase activity, inhibitor | 1 µM | relative to: untreated control | remaining activity | 110%
CC(C)=CC1OC(C)(C)C2C=C3C(=O)C(Cl)=CC(O)C3C3C(O)C4OC4C(=O)C132 (centres unmarked) | MAP2K6 | cell-free assay, competition with immobilised ligand | 10 µM |  | remaining binding | 92%
CNC1C[S+]2CC[S+]3CC[S+](C1)[Ru-4]321([N]=C=S)[n]2c3ccc(OC)cc3c3c4c(c5cc(F)c[n+]1c5c32)C(=O)NC4=O (centres unmarked) | MAP2K6 | KinomeScan | 0.1 µM | relative to: untreated | remaining binding | 100%
COc1cc(Nc2nccc(-c3cnn4nc(OC)ccc34)n2)cc(C(F)(F)F)c1 | MAP2K6 | binding, competition with immobilised ligand | 1 µM |  | remaining binding | 100%
COc1ccc(NC(=O)Nc2ccc3c(c2)C(=O)N(C(C)CO)CC(C)C(CN(C)Cc2ccc4c(c2)OCO4)O3)cc1 (centres unmarked) | MAP2K6 | kinase activity | 0.03 µM | relative to: control | remaining activity | 98%
COCC12C(=O)NC3C4(C(OC)CC1O)C1CC5(O)C(OC)C(O)C(OC(C)=O)(C1C5OC(=O)c1ccccc1)C3(O)C(OC)C24 (centres unmarked) | Dual specificity mitogen-activated protein kinase kinase 6 (MAP2K6, Homo sapiens, UniProt P52564, S207D/T211D) | kinase activity, inhibitor, ProQinase kinase profiling | 25 µM | relative to: control | remaining activity | 139% and 102%
CCN1CCN(Cc2ccc(C(=O)Nc3ccc(C)c(NCc4cnc5[nH]ccc5c4OC)c3)cc2C(F)(F)F)CC1 | MAP2K6 | binding, competition with immobilised ligand | 1 µM |  | remaining binding | 100%
CN1CCN(Cc2ccc(-c3ccc(CO[C@H]4CCC[C@@H]4NC(=O)c4cc(-c5cnn(C)c5)cnc4N)cc3)cc2)CC1 | MAP2K6 | enzyme activity, inhibitor | 0.1 µM |  | inhibition | 9% and 3%
Nc1ncc(-c2cc(-c3cnn(CC(F)(F)F)c3)ncc2F)nc1C(=O)NC1CNCC(F)C1 (centres unmarked) | MAP2K6 | enzyme activity | 1 µM | relative to: DMSO control | remaining activity | 92%

A few entries again:
SMILES | target | test | setting | how to read | endpoint | result
NC(=O)C[C@H]1CCc2sc3ncnc(O[C@H]4CC[C@H](N5CCOCC5)CC4)c3c21 | MAP2K6 | enzyme activity, inhibitor | 10 µM |  | inhibition | 7%
Nc1ncc2c(n1)-c1c([nH]c3ccc(C4=CCOCC4)cc13)CCC2 | MAP2K6 | binding, competition with immobilised ligand | 1 µM |  | remaining binding | 100%
CNC(=O)C1CCN(c2cc(C)c(F)cc2NC(=O)c2ccc(-c3cc(O)ccc3C)c(C)c2)CC1 | MAP2K6 | binding, competition with immobilised ligand | 1 µM |  | remaining binding | 100%
CNC1C[S+]2CC[S+]3CC[S+](C1)[Ru-4]321([N]=C=S)[n]2c3ccc(OC)cc3c3c4c(c5cc(F)c[n+]1c5c32)C(=O)NC4=O (centres unmarked) | MAP2K6 | KinomeScan | 0.1 µM | relative to: untreated | remaining binding | 100%
